Assay results of several laboratories.
Compare with care: the assays were run in different laboratories.
UCHL1: Ubiquitin carboxyl-terminal hydrolase isozyme L1 (UCHL1, Homo sapiens, UniProt P09936)
Chain of UniProt P09936 (whole entry, looked up): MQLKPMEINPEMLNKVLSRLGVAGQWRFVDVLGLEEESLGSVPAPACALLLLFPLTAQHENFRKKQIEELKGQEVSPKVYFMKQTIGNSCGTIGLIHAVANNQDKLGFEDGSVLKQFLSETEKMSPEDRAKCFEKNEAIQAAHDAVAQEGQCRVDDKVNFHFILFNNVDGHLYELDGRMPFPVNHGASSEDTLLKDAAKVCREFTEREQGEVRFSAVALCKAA
PTK2: Focal adhesion kinase 1 (PTK2, Homo sapiens, UniProt Q05397)
Chain of UniProt Q05397 (whole entry, looked up): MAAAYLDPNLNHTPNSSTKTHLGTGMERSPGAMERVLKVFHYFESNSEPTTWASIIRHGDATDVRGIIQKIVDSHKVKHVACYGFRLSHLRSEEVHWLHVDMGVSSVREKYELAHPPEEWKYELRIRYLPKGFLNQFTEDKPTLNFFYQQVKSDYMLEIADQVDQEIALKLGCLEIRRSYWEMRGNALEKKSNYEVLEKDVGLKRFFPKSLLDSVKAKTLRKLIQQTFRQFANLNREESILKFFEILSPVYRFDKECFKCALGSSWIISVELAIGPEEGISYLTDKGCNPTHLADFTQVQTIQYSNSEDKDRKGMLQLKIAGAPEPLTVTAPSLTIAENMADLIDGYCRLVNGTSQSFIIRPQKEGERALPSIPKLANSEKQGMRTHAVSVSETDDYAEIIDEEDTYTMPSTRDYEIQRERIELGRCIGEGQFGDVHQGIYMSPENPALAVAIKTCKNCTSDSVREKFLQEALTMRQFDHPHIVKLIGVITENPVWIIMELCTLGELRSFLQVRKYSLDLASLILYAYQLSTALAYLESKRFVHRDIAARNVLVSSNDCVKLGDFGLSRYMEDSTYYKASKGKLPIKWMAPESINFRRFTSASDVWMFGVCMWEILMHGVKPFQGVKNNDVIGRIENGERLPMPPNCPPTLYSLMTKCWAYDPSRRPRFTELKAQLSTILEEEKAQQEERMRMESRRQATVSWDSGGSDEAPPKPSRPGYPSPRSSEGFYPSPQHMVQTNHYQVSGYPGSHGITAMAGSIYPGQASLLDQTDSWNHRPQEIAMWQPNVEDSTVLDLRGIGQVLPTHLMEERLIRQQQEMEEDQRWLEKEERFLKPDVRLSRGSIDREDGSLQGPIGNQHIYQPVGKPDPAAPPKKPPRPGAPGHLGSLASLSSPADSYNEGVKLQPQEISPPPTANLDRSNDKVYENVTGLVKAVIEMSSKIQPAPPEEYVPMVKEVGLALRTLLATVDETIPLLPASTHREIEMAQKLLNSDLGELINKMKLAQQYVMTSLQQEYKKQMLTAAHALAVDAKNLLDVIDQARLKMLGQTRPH

For CC(C)NC(=O)C(C#N)=Cc1cc(F)ccc1F, the labelling was 22.4% (UCHL1; covalent, intact protein LC-MS; 12.5 µM).
For CC[C@@H]1[C@H](F)C(=O)N[C@@H]1COc1nccc2cc(C(N)=O)c(OC)cc12, the inhibition was 25.4% (PTK2; ATP probe binding, KiNativ profiling, measured: Lys1 probe site; THP-1 cell lysate; 0.01 mM).
With COc1cc(F)ccc1-c1ncnc(Nc2cccc(C[S@](C)(=N)=O)c2)n1 the remaining activity was 91% (PTK2; kinase activity; 10 µM, with: 10 µM ATP).
Cc1ccc(Nc2nc(NCc3ccco3)c3ccccc3n2)cc1 gave an inhibition of 18.9% (Trypanosoma cruzi; reporter translation, Renilla luciferase mRNA translation; cell-free extract; 40 µM; baseline: DMSO).
The remaining binding of C=CC(=O)N1CCC(COCC(=O)N2CCN(c3nc(-c4cnc(N)nc4C(F)F)nc(N4CCOC[C@@H]4C)n3)CC2)CC1 is reported as 100% (PTK2; KINOMEscan; 1 µM).
N#CC(=Cc1ccc(C#N)cc1)C(=O)Nc1cccc2ccccc12 has a labelling of 39% (UCHL1; covalent, intact protein LC-MS; 12.5 µM).
CNC(=O)c1ccccc1Nc1cc(Nc2ccc(N3CCN(CCCCCCNC(=O)COc4cccc5c4C(=O)N(C4CCC(=O)NC4=O)C5=O)CC3)cc2OC)ncc1C(F)(F)F (centres unmarked): “concentration with observed degradation” 1 nM (PTK2; degrader, immunoblot; PaTu 8988t; 4 h).
For Cc1cc(Nc2cc(N3CCN(C)CC3)nc(Sc3ccc(NC(=O)C4CC4)cc3)n2)[nH]n1, the remaining activity was 84% (PTK2; kinase activity, KinaseProfiler; 0.03 µM, species human; baseline: control).
The remaining activity of CNc1ncc2c(/C=C/C(=O)N3CCC(OC)CC3)nn(Cc3cccc(C(F)(F)F)c3)c2n1 is reported as 93% (PTK2; kinase activity, inhibitor; 1 µM; baseline: untreated control).
For CNC(=O)c1ccccc1Nc1cc(Nc2cc(C)c(C3CCN(CCCCCCNC(=O)COc4cccc5c4C(=O)N(C4CCC(=O)NC4=O)C5=O)CC3)cc2OC(C)C)ncc1C(F)(F)F (centres unmarked), “concentration with observed degradation” read 10 nM (PTK2; degrader, immunoblot; PaTu 8988t; 4 h).
C=CC(=O)N1CCC[C@@H](n2nc(-c3ccc(Oc4ccccc4)cc3)c3c(N)ncnc32)C1 has a remaining activity of 158% (PTK2; 0.1 µM).
